Measurements pooled from the literature.
Every numbered part comes from another study and shows a few of its results, in no order. “And” joins repeats or separate records; there may be more than shown.
Sequence of UniProt P05771 (whole entry, looked up): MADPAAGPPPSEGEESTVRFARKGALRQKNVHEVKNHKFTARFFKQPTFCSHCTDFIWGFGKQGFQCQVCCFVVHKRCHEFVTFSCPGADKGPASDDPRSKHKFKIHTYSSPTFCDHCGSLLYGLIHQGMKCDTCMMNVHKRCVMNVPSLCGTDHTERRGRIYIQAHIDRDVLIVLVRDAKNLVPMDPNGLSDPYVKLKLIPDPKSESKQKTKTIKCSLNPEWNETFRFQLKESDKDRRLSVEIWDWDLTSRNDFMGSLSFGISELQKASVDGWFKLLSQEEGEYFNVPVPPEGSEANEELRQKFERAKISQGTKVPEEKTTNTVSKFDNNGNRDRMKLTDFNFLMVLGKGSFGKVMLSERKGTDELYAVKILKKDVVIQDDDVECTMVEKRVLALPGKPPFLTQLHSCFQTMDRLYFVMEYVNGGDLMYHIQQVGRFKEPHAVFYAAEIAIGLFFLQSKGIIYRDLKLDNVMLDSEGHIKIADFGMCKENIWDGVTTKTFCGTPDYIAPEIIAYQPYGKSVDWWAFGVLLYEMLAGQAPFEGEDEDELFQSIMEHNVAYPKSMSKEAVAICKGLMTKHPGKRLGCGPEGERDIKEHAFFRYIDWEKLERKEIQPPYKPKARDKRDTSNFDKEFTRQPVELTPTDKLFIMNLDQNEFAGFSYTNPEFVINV
Sequence of UniProt P61075 (whole entry, looked up): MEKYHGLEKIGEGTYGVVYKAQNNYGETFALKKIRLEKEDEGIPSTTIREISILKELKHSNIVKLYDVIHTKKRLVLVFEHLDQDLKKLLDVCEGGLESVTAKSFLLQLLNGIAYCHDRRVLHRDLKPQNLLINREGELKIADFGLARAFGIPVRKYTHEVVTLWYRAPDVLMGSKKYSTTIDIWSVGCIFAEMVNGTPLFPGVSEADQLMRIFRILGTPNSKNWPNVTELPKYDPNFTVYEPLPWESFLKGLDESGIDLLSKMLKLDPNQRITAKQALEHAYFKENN
Sequence of UniProt P07948 (whole entry, looked up): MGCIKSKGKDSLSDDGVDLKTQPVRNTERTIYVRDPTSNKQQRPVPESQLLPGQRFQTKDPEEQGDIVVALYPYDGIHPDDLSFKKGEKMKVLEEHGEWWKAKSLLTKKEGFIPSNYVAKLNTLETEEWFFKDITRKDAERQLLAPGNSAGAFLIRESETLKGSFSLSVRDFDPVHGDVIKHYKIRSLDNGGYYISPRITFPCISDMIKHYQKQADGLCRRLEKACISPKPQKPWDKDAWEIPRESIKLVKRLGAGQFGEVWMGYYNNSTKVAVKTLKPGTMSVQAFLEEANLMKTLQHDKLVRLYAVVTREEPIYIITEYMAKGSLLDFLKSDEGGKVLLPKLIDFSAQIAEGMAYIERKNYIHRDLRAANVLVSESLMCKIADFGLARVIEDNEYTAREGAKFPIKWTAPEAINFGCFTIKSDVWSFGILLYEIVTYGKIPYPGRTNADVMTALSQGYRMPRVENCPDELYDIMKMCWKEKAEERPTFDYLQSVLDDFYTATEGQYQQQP
Sequence of UniProt P62344 (whole entry, looked up): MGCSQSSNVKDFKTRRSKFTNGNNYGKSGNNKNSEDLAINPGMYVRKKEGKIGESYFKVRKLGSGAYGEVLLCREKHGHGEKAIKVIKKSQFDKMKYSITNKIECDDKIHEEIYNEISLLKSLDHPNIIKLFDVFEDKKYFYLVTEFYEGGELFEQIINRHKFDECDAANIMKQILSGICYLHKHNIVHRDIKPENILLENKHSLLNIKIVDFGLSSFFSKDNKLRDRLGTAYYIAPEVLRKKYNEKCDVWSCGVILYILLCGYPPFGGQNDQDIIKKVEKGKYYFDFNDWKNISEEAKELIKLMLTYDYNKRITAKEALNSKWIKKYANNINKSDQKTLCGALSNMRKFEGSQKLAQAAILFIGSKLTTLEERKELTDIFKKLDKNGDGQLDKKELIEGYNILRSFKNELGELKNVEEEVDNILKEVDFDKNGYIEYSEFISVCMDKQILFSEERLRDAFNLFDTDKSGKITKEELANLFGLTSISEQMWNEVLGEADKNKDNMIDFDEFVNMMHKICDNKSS

Sample 1 — organism: Cryptosporidium parvum; technique: time-kill; cells: HCT-8; strain: nanoluciferase-expressing; reading: higher = more parasites; measurement: parasite luminescence
SMILES: CNC(=O)c1ccc(-c2cnn3ccc(C(=O)N(C)c4ccc(Cl)c(C(=O)OC)c4)cc23)cc1
tested at = 0.02743 µM; time = 8 h; result = 80600 RLU and 96400 RLU
tested at = 0.00914 µM; time = 8 h; result = 82300 RLU and 71600 RLU
tested at = 20 µM; time = 72 h; result = 21600 RLU and 17700 RLU
tested at = 0.2469 µM; time = 24 h; result = 96900 RLU and 68500 RLU
tested at = 6.667 µM; time = 48 h; result = 28100 RLU and 32400 RLU
tested at = 2.222 µM; time = 4 h; result = 81700 RLU and 105000 RLU
tested at = 20 µM; time = 4 h; result = 87800 RLU and 71000 RLU
tested at = 0.00914 µM; time = 48 h; result = 36000 RLU and 36600 RLU
tested at = 20 µM; time = 8 h; result = 92700 RLU and 89400 RLU
tested at = 2.222 µM; time = 48 h; result = 23900 RLU and 26800 RLU
tested at = 0.2469 µM; time = 4 h; result = 78900 RLU and 75800 RLU
tested at = 0.00305 µM; time = 72 h; result = 161000 RLU and 193000 RLU

Sample 2 — observed: enzyme activity; mode: inhibitor; tested at: 0.5 µM; reference: control; measurement: remaining activity
Compound: O=c1[nH]c2ccccc2n1C1CCN(Cc2ccc(-c3[nH]c4cc5ncnc5cc4nc3-c3ccccc3)cc2)CC1
target = Protein kinase C beta type, isoform beta-I (PRKCB, Homo sapiens, UniProt P05771); result = 108%
target = cGMP-dependent protein kinase 1, isoform beta (PRKG1, Homo sapiens, UniProt Q13976); result = 101%
target = Tyrosine-protein kinase Lyn, isoform B (LYN, Homo sapiens, UniProt P07948); result = 116%

Sample 3 — observed: enzyme activity; mode: inhibitor; tested at: 77 µM; measurement: remaining activity
Target: DNA polymerase theta, ATPase domain (POLQ, Homo sapiens, UniProt O75417)
Sequence of UniProt O75417 (whole entry, unmodified, looked up): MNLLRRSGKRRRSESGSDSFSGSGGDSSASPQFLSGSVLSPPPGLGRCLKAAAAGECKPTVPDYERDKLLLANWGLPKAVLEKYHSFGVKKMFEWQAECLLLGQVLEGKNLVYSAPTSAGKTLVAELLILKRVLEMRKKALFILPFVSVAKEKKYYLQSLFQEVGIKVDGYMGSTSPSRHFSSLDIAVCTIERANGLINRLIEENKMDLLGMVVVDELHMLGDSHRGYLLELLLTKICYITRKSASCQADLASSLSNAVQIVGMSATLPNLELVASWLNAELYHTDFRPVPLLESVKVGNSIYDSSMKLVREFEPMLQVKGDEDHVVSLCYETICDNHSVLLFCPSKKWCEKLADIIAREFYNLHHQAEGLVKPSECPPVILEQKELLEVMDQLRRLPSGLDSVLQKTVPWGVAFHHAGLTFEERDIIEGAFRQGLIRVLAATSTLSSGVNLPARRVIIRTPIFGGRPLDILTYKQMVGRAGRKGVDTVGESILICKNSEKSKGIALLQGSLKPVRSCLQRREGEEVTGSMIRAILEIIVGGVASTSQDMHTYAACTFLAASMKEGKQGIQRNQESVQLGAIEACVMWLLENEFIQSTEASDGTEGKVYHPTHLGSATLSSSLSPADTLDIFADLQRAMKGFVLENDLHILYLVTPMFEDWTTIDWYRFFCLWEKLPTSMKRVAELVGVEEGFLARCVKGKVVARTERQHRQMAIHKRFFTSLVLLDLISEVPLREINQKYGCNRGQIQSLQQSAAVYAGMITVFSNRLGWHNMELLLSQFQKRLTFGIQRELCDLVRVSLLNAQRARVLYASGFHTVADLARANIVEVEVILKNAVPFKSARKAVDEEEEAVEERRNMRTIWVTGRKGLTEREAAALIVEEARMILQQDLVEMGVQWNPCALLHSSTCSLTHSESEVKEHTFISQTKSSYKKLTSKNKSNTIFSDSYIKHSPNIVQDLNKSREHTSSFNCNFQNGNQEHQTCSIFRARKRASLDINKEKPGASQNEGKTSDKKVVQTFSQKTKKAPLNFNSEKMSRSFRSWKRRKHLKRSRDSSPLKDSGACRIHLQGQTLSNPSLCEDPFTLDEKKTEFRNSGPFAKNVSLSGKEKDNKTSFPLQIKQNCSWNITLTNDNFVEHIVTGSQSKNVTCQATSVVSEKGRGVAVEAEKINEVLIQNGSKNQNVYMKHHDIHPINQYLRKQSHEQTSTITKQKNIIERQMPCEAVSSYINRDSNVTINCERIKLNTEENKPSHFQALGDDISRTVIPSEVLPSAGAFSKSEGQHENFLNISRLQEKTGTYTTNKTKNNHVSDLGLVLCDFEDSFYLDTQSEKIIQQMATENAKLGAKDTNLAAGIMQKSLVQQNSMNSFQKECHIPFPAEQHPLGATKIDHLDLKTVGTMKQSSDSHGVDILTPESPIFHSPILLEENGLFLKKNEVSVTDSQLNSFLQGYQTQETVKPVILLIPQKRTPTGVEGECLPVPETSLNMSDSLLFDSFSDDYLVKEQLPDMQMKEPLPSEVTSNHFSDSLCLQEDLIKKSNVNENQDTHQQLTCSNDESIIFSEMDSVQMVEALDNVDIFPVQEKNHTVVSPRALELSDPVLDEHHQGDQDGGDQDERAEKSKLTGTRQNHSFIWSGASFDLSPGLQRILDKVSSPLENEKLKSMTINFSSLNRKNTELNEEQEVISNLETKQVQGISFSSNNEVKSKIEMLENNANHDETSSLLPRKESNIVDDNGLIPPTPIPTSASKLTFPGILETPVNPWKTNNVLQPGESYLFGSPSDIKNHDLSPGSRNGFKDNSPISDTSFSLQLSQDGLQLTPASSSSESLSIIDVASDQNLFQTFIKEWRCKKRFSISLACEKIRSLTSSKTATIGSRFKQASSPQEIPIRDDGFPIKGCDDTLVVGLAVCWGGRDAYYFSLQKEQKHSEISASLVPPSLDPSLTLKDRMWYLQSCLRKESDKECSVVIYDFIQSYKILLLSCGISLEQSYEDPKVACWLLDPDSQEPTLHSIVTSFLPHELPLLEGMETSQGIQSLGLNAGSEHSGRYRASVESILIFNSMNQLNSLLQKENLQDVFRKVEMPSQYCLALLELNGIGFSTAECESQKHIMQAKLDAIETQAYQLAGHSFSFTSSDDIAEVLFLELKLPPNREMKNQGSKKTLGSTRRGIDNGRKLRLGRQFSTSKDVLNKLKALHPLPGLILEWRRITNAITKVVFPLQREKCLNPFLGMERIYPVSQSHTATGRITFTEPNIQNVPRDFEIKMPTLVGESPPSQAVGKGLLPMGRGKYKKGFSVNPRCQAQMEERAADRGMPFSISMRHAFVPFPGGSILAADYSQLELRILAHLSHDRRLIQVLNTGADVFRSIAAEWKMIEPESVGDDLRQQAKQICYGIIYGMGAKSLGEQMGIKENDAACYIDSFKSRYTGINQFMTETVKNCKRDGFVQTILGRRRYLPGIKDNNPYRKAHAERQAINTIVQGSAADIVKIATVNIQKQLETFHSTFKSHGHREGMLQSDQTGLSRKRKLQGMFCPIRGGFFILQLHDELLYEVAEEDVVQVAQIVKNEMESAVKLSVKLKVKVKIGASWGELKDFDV
Structure (SMILES) = COC(=O)[C@]1(O)C[C@@H]2O[C@@]1(C)n1c3ccccc3c3c4c(c5c6ccccc6n2c5c31)C(=O)NC4; result = 102%
Structure (SMILES) = Cc1ccccc1-n1c(Cn2cnc3c(N)ncnc32)nc2cccc(C)c2c1=O; result = 111%
Structure (SMILES) = NCCc1c[nH]c2ccc(C(N)=O)cc12; result = 99.8%
Structure (SMILES) = S=C(NC1CCCCC1)N1CCC(c2cnc[nH]2)CC1; result = 102%
Structure (SMILES) = CCCN1CCC[C@@H]2Cc3n[nH]cc3C[C@H]21; result = 101%
Structure (SMILES) = CN1CCc2cc(O)cc3c2[C@H]1Cc1ccc(O)c(O)c1-3; result = 103%
Structure (SMILES) = C1=C2CCCN[C@H]2[C@@H]2C[C@H]1[C@H]1CCCCN1C2; result = 102%
Structure (SMILES) = CNCCc1ccc(O)c(O)c1; result = 101%
Structure (SMILES) = CN1CC[C@@]2(C)c3cc(O)ccc3N(C)[C@@H]12; result = 103%
Structure (SMILES) = COc1cc(-n2c(=S)[nH]c3ccccc3c2=O)c(Cl)cc1Cl; result = 95.1%
Structure (SMILES) = CCOC(=O)c1ncn2c1[C@@H]1CCCN1C(=O)c1cc(OC)ccc1-2; result = 102%

Mixed results
DRD5: D(1B) dopamine receptor (DRD5, Homo sapiens, UniProt P21918)
Sequence of UniProt P21918 (whole entry, looked up): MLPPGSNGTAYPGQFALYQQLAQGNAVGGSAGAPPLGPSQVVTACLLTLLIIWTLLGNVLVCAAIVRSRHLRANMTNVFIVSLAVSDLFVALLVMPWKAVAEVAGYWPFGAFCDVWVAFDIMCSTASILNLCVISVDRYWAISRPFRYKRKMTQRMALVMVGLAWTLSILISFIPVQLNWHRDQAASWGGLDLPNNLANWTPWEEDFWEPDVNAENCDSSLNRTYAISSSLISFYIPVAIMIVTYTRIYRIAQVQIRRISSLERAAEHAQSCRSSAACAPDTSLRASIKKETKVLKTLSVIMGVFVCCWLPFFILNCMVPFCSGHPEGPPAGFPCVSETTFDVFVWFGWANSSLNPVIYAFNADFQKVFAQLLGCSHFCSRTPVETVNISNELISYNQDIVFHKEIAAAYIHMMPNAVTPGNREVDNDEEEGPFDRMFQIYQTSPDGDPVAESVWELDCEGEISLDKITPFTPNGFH
SMILES = C[C@@]1(Cc2ccc(C#N)cc2)C(=O)N(c2cc(Cl)cc(Cl)c2)c2ncc(C(=O)NC3(c4nc(C5CCC5)no4)CC3)n21; target = Cyclin-dependent kinase 2 homolog (CRK2, Plasmodium falciparum, UniProt P61075); observed = cell-free assay; technique = competition with immobilised ligand; tested at = 1 µM; measurement = remaining binding; result = 100%
SMILES = CC1=C(C#N)[C@@H](c2ccc3[nH]nc(C)c3c2)C(C#N)=C(c2ccc(Cl)cc2)N1; target = DRD5; observed = binding; technique = radioligand binding; measurement = Ki; result = > 10 µM
SMILES = Cn1nc(C(=O)NCc2ccc(C(=O)O)cc2)cc1-c1ccc2[nH]ccc2c1; target = DRD5; observed = binding; technique = radioligand binding; measurement = Ki; result = > 10 µM
SMILES = Cc1c(NC(=O)c2cc(C(N)=O)nc3cc(F)ccc23)c(C(F)(F)F)nn1Cc1ccc(C(C)(C)C)cc1; target = Calcium-dependent protein kinase 1 (CDPK1, Plasmodium falciparum, UniProt P62344); observed = cell-free assay; technique = competition with immobilised ligand; tested at = 1 µM; measurement = remaining binding; result = 100%
